Measured values collected from several papers.
Lines come from different studies, so protocols differ. ± gives the spread as reported.
Cell line: HT-29

SMILES	assay	conditions	how to read	measurement	value
c1ccc2c(Cc3[nH]c4ccccc4c3Cc3c[nH]c4ccccc34)c[nH]c2c1	cell growth or viability, ATP luminescence	24 h		IC50	19 µM
CN(C12CCCC(C)(CCC3C1CC3(C)C)C2)S(=O)(=O)c1ccc(N)cc1 (stereo not shown)	cell growth or viability, CCK-8	50 µM		inhibition	90.2%
COc1cccc(OC)c1-c1cc(C(=O)NC2(C(=O)O)C3CC4CC(C3)CC2C4)nn1-c1ccc(C(=O)N(C)CCOCCN(C)C(=O)[C@H](CCCCNC(=O)[C@H](CC(C)C)NC(=O)C2OC2C(=O)O)NC(=O)CN2CCN(CC(=O)[O-])CCN(CC(=O)[O-])CCN(CC(=O)[O-])CC2)cc1C(C)C.[177Lu+3] (mixture of isomers)		concentration not given, 120 min	baseline: added activity	internalized fraction	3.67 ± 0.31%
CC12CCCC(NS(=O)(=O)c3ccccc3)(C1)C1CC(C)(C)C1CC2 (stereo not shown)	cell growth or viability, CCK-8	50 µM		inhibition	97.7%
C1=[N+]2CCCC[N+]3=Cc4ccc5[n]4[Au-]23[n]2c1ccc2-c1nc2ccccc2nc1-5.F[P-](F)(F)(F)(F)F	NCI60 five-dose screen			TGI	4.45 -log M
C=CCOc1c(C)c(OC)c(C(=O)/C=C/c2ccccc2)c(OCC=C)c1C	cell growth or viability, SRB	72 h		IC50	> 50 µM
CCN(C(=O)c1cc(F)ccc1Oc1nncnc1N1CCC2(C1)CN([C@H](CCCN(C)CCOC)C(C)C)C2)C(C)C	cell growth or viability	72 h		GI50	> 10 µM
CNCCNC(=O)c1cn(C23CCCC(C)(CCC4C2CC4(C)C)C3)nn1 (stereo not shown)	cell growth or viability, CCK-8	50 µM		inhibition	72.3%
COc1c(C)c(OS(=O)(=O)c2ccccc2)c(C)c2c1C(=O)CC(c1ccccc1)O2 (stereo not shown)	SRB		baseline: normal over HT-29 IC50	selectivity index	> 1.1
CC12CCCC(n3cc(-c4ccccc4)nn3)(C1)C1CC(C)(C)C1CC2 (stereo not shown)	cell growth or viability, CCK-8	10 µM		inhibition	< 50%
COc1c(C)c(OC(=O)c2ccccc2)c(C)c(OC(=O)c2ccccc2)c1C(=O)/C=C/c1ccccc1	SRB		baseline: normal over HT-29 IC50	selectivity index	0.75
COc1cc(-n2cc3cc(F)cc(C(N)=O)c3n2)cc(Cl)c1C1CC(O)(CCO)Cc2ccccc21 (stereo not shown)	cell growth or viability, MTT	72 h		IC50	0.13 µM
CCCCCCCC(=O)Oc1c(C)c(OC)c2c(/C=C/c3ccccc3)c(CCCCCC)c(=O)oc2c1C	cell growth or viability, SRB	72 h		IC50	> 50 µM
COc1cccc(OC)c1-c1cc(C(=O)NC2(C(=O)O)C3CC4CC(C3)CC2C4)nn1-c1ccc(C(=O)NCCNC(=O)[C@H](CCCCNC(=O)[C@H](CC(C)C)NC(=O)C2OC2C(=O)O)NC(=O)CN2CCN(CC(=O)[O-])CCN(CC(=O)[O-])CCN(CC(=O)[O-])CC2)cc1C(C)C.[177Lu+3] (mixture of isomers)		concentration not given, 30 min	baseline: added activity	internalized fraction	1.27 ± 0.13%
CC12CCCC(NS(=O)(=O)C3CC3)(C1)C1CC(C)(C)C1CC2 (stereo not shown)	cell growth or viability, CCK-8	50 µM		inhibition	56.4%
CC(C)c1ccc(N(C)c2ccc3c(c2)OCC[C@H]3CNc2cnccc2C(=O)O)cc1	apoptosis, refers to: caspase-3/7	72 h	baseline: panobinostat	EC50	0.092 µM
COc1c(C)c(OCc2ccccc2)c(C)c(OCc2ccccc2)c1C(=O)/C=C/c1ccccc1	cell growth or viability, SRB	72 h		IC50	> 50 µM
COC(CC1C(C)=CCC2C1(C)CCC1C(C)(C)C(O)C(O)CC12C)C(N)C(=O)O (stereo not shown)	cell growth or viability, CCK-8	72 h		IC50	> 10 µM
CN(C)CCN1CCN(c2ccc3nc(-c4ccc5nc(-c6ccc(C(F)(F)F)cc6)[nH]c5c4)[nH]c3c2)CC1	SRB	10 µM, 48 h		growth percent	29.3%

For quick reference, copied from above:
SMILES	assay	conditions	how to read	measurement	value
CCCCCCCC(=O)Oc1c(C)c(OC)c2c(/C=C/c3ccccc3)c(CCCCCC)c(=O)oc2c1C	cell growth or viability, SRB	72 h		IC50	> 50 µM
